Assay results pooled from the literature.
Parts stem from different laboratories: compare values within a part only.

Block 1
Target: Interferon regulatory factor 3, full length, phosphomimetic (IRF3, Homo sapiens, UniProt Q14653, residues 1-427, S386D/S396D/S398D/S402D/T404D/S405D)
Technique: protein-binding microarray
Form: double-stranded DNA, one strand shown
Medium: in vitro
Tested at: 2540 nM top
Setting: 60-bp whole probe
Added: salmon DNA 0.4 mg/ml
Reference: random background probes
Reading: higher = stronger binding
Shared flanks, not repeated: GCCTAGCAC … GTCTTGATTCGCTTGACGCTGCTG
Target sequence (chain): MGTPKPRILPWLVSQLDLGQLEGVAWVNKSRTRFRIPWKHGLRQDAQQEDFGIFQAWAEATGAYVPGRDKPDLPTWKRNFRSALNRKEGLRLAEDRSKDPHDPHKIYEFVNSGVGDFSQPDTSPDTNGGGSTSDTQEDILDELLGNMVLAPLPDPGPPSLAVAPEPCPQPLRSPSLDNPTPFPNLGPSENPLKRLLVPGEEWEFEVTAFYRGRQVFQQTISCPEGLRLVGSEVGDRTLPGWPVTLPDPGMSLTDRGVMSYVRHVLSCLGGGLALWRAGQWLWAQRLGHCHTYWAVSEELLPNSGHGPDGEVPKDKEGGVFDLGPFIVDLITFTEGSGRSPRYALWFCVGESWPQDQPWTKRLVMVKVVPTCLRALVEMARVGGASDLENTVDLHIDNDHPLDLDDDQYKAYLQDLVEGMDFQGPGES
Under “fitted relative affinity”, `GAATGTCCTCCTCTCTCTTTGTGCTAG` is recorded as 0.916 z-score.
For `TTAGGTTTCGACTATCTGTTAGTGCTA`, “fitted relative affinity” read 2.28 z-score.
For `CACGGACTGCTTTTCCTGACGTGCTAG`, “fitted relative affinity” read -0.139 z-score.
For `GACGGTTTCCATTCCCTGACGTGCTAG`, “fitted relative affinity” read 7.77 z-score.
Under “fitted relative affinity”, `GCCTTTATATACCTGAATATGTGCTAG` is recorded as 0.737 z-score.
For `GAAGATCTCAGTCTCGAGACGTGCTAG`, “fitted relative affinity” read 0.352 z-score.
`TTAGGTTTCGGACTGCGTTAGTGCTAG`: “fitted relative affinity” 4.27 z-score.
`TGTTATTAAATTTTCACGGTGTGCTAG` — result for “fitted relative affinity”: 0.213 z-score.
`GTCGGTCTCCTTCTCCTGACGTGCTAG` — result for “fitted relative affinity”: 5.72 z-score.
Under “fitted relative affinity”, `GATGGTTTCGGGACTGGGGACGTGCTA` is recorded as 4.33 z-score.
`TTAGATTACAGTATCGATTAGTGCTAG`: “fitted relative affinity” 1.08 z-score.
Under “fitted relative affinity”, `CTAGGTTTCGACTTTCGGTTAGTGCTA` is recorded as 4.01 z-score.
`CATTTTCTGAATGTCCTCCTGTGCTAG` — result for “fitted relative affinity”: 3.81 z-score.
`GACGGTTTCCTGTCCCTGACGTGCTAG` — result for “fitted relative affinity”: 3.76 z-score.
`TTCGATATCAGTCTCGATTAGTGCTAG` — result for “fitted relative affinity”: 1.65 z-score.
`CTCATTTTCATTTTGTGTCTGTGCTAG`: “fitted relative affinity” 3.05 z-score.
Under “fitted relative affinity”, `ATGACAATGATGTTTTGAGTTGTGCTA` is recorded as -0.544 z-score.
For `TTAGATATCGGATTTCGATTAGTGCTA`, “fitted relative affinity” read 1.9 z-score.
For `GACGGTATCCTTTTCCTGACGTGCTAG`, “fitted relative affinity” read 7.39 z-score.

Block 2
Target: Cyclic AMP-dependent transcription factor ATF-1 (ATF1, Homo sapiens, UniProt P18846, residues 1-271, full length assumed)
Technique: protein-binding microarray
Form: double-stranded DNA, one strand shown
Medium: in vitro
Tested at: not given
Setting: k-mer, scored over probes, only values ≥0.25
Reading: higher = stronger binding
Target sequence (chain): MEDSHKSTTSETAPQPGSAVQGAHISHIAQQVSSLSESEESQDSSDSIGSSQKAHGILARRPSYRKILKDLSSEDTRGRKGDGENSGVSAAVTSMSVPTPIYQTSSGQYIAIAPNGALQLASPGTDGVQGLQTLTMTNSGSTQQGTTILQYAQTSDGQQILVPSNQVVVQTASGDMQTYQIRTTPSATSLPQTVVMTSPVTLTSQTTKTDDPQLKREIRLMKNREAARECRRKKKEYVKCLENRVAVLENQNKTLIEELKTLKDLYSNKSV
The E-score of `ACGCGTC` is reported as 0.382.
For `CGTCACA`, the E-score was 0.485.
`TGTCACA` has an E-score of 0.277.
`ATACGTA` has an E-score of 0.416.
`ACACGTA` gave an E-score of 0.407.
The E-score of `CGCATCA` is reported as 0.316.
`ACACGTC` has an E-score of 0.364.
`AAGACGT` gave an E-score of 0.277.
`CGTCATA` has an E-score of 0.48.
`ACGTTAC` has an E-score of 0.359.
With `ACGCGTA` the E-score was 0.269.
`ACGCAAC` has an E-score of 0.349.
With `CGGTGAC` the E-score was 0.297.
For `TATGACA`, the E-score was 0.274.
`CGTCGTC` gave an E-score of 0.276.
The E-score of `CCATTAC` is reported as 0.261.

Block 3
Target: Centromere-binding protein 1, full length, N-terminal tag (CBF1, Saccharomyces cerevisiae, UniProt P17106, residues 1-351)
Chain of UniProt P17106 (whole entry, looked up): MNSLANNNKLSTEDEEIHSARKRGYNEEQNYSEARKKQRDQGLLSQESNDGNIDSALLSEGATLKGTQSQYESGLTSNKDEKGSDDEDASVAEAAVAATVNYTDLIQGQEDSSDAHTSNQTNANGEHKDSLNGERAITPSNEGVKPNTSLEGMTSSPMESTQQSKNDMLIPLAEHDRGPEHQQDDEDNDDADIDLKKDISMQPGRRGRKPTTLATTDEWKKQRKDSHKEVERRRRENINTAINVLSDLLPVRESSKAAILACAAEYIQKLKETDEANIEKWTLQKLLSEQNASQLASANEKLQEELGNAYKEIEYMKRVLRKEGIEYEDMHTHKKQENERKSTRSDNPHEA
Technique: protein-binding microarray
Form: double-stranded DNA, one strand shown
Medium: in vitro
Tested at: 0.8 µM
Setting: whole 60-bp probe, no competitor
Reading: higher = stronger binding
`GAAGTTCCGGCCGCACGTGCAGCGCATGTGTACTAGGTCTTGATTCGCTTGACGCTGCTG` gave a fluorescence intensity of 6800 a.u.
`GAAGCGGAGTTCCATCAGCTATGGTTCGGATATTAGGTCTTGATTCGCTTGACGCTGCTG` gave a fluorescence intensity of 505 a.u.
`CTACTTTCGCAAATTCATGTGTTTTAAGGGTAATTCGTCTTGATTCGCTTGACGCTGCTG` gave a fluorescence intensity of 527 a.u.
With `GAAGAGGCGGTATGTGACGTGAATATATGCGATTAGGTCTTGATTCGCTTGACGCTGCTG` the fluorescence intensity was 627 a.u.
For `CTATCTCCAATTTTTGACATCAGCGATTATGGCTTCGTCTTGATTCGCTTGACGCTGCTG`, the fluorescence intensity was 548 a.u.
`GAATATATGAATCCACGCACCTGATCTGGCTCTTAGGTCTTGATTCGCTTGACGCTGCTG` has a fluorescence intensity of 1170 a.u.
The fluorescence intensity of `GAACAGACATACTTCTTCGTGATGCGAATTTGATAGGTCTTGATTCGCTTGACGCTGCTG` is reported as 608 a.u.
`TGTACGAAGCTATATCTCGTGATTATAGTAGTTAGGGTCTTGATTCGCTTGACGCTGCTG` gave a fluorescence intensity of 1490 a.u.
With `GAATCTTCCATTTTTTATGTGACATTATCCTATTAGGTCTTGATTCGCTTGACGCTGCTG` the fluorescence intensity was 523 a.u.
With `GAAATGCAATTATGCAACACGCACACATTCACATAGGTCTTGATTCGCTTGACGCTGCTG` the fluorescence intensity was 528 a.u.
With `GAACTTCATTAACATGTGACAAGTGCCCATCCATAGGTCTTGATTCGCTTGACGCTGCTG` the fluorescence intensity was 2800 a.u.
With `GAATGCTTGTGTTTACACGTTCGCGGTCAATGCTAGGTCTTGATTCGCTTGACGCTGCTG` the fluorescence intensity was 553 a.u.
With `CTATTTCATGATAATCATATGAGCATGTTTAATTTCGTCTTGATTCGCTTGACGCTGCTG` the fluorescence intensity was 571 a.u.
With `CCTAACTACTATACCCACACGCAATAGCTTCGTACAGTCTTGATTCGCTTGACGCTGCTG` the fluorescence intensity was 537 a.u.
For `GAATGAATTTTCATTCACGTGATCTACATTCCCTAGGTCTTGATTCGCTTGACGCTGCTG`, the fluorescence intensity was 23300 a.u.
`GAACTGTACACGTATATCGTGACCCGGCGCCAATAGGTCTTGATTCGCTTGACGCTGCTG` has a fluorescence intensity of 1150 a.u.
`CTACGGATCGCTTCGCACGTTTGTTTACAATTGTTCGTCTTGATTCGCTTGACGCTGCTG` gave a fluorescence intensity of 544 a.u.
The fluorescence intensity of `CTATTTATAAAATATGACGTCGTAAAAGAAGAATTCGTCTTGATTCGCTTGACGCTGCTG` is reported as 569 a.u.
With `GAAAGCGCTTCAGACATCAGCATGGGTTGCAAATAGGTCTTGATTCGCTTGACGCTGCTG` the fluorescence intensity was 571 a.u.

Block 4
Target: Sal-like protein 4, full length isoform A (SALL4, Homo sapiens, UniProt Q9UJQ4, residues 1-1053)
Chain of UniProt Q9UJQ4 (whole entry, looked up): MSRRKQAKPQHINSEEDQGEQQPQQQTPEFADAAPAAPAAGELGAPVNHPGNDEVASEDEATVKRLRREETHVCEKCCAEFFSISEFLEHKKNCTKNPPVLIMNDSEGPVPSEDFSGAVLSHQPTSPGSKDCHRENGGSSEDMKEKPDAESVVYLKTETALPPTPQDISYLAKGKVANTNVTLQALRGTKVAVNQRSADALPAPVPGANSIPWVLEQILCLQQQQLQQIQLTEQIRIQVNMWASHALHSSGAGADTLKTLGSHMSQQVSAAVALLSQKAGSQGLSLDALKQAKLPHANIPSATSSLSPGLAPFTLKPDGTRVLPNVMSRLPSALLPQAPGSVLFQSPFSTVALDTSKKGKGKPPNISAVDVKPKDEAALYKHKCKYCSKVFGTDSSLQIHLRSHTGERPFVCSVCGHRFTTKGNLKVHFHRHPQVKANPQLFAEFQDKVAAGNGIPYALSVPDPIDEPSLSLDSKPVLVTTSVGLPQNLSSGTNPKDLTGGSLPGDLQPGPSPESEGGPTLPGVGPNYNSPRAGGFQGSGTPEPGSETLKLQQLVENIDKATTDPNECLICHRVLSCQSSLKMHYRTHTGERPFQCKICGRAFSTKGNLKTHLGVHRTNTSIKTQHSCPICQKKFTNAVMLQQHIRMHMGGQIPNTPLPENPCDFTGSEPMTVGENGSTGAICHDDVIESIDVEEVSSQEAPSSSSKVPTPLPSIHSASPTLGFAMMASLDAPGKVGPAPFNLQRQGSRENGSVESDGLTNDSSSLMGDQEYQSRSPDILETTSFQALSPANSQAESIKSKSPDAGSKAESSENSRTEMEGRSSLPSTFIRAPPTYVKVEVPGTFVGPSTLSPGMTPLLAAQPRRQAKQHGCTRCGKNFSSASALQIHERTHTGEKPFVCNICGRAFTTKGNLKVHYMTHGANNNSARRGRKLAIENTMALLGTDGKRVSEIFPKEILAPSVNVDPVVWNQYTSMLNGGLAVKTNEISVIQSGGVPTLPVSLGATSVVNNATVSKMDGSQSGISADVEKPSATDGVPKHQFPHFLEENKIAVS
Technique: universal PBM
Form: double-stranded DNA, one strand shown
Medium: in vitro
Tested at: 600 nM
Setting: 8-mer, flanks averaged, mean of replicates
Reading: higher = stronger binding
The E-score of `ACGTCCCG` is reported as -0.367.
With `CCGGTAGA` the E-score was -0.237.
For `ATCACGAA`, the E-score was 0.137.
`CTGGTGAC` gave an E-score of -0.246.
With `AAGGCCCA` the E-score was -0.184.
`AGTATTGG` has an E-score of 0.185.
With `CGCGACGA` the E-score was -0.138.
For `AAATATCC`, the E-score was 0.274.
The E-score of `GGATCCCC` is reported as -0.305.
With `CAGTTACG` the E-score was -0.1.
With `GATAAGGA` the E-score was 0.0576.
With `ACTACGAA` the E-score was 0.125.
`AGGATGTC` has an E-score of -0.0821.
For `ACGGAGAA`, the E-score was -0.000755.
`GATGTCAC` has an E-score of -0.0663.
With `CCATATGG` the E-score was 0.0275.
`CCCCAAGG` gave an E-score of -0.284.

Block 5
Target: Prothrombin, mature alpha-thrombin (F2, Homo sapiens, UniProt P00734)
Technique: aptamer microarray, sandwich
Form: DNA with 2'F-ANA
Medium: in vitro
Tested at: 200 nM
Setting: whole 15-mer aptamer, many near background
Added: Cy3 exosite-II aptamer, 400 nM
Reading: higher = stronger binding
Sequence: GGTTGGTGTGGTTGG
`2'F-ANA at 1 2 3 4 6 11 12 13` — result for “mean fluorescence intensity”: 186 a.u.
For `2'F-ANA at 1 3 4 6 7 10 12 14 15`, “mean fluorescence intensity” read 54.7 a.u.
`2'F-ANA at 1 2 4 5 6 8 9 10 12 13 15` — result for “mean fluorescence intensity”: 131 a.u.
`2'F-ANA at 1 2 3 5 6 9 11 13 15` — result for “mean fluorescence intensity”: 62.2 a.u.
For `2'F-ANA at 1 3 4 7 8 12 14`, “mean fluorescence intensity” read 114 a.u.
`2'F-ANA at 2 4 6 7 9 13 14` — result for “mean fluorescence intensity”: 71.6 a.u.
`2'F-ANA at 4 5 8 13 14`: “mean fluorescence intensity” 43.1 a.u.
For `2'F-ANA at 2 5 6 7 10 11 15`, “mean fluorescence intensity” read 66.5 a.u.
`2'F-ANA at 10 11 12 14 15`: “mean fluorescence intensity” 98.6 a.u.
Under “mean fluorescence intensity”, `2'F-ANA at 1 3 4 5 8 9 10 11 13 14 15` is recorded as 67.9 a.u.
For `2'F-ANA at 1 2 5 6 8 9 10 11 15`, “mean fluorescence intensity” read 47.3 a.u.
For `2'F-ANA at 2 3 5 6 7 8 9 10 12 13 14`, “mean fluorescence intensity” read 50.6 a.u.
`2'F-ANA at 1 3 6 7 8 11 12 14 15` — result for “mean fluorescence intensity”: 119 a.u.
`2'F-ANA at 2 3 4 5 7 8 9 12 13`: “mean fluorescence intensity” 129 a.u.
For `2'F-ANA at 6 12 13`, “mean fluorescence intensity” read 655 a.u.
For `2'F-ANA at 2 3 4 5 7 8 9 12 13 14`, “mean fluorescence intensity” read 56.6 a.u.
`2'F-ANA at 1 6 10 11 12` — result for “mean fluorescence intensity”: 64.6 a.u.
Under “mean fluorescence intensity”, `2'F-ANA at 1 3 4 5 9 11 12 14 15` is recorded as 49 a.u.
`2'F-ANA at 1 7 8 10 12 13 14 15` — result for “mean fluorescence intensity”: 49.4 a.u.
`2'F-ANA at 1 2 4 10 12 13 15` — result for “mean fluorescence intensity”: 56.1 a.u.
`2'F-ANA at 1 2 3 4 7 8 9 10 13 15` — result for “mean fluorescence intensity”: 54.6 a.u.
`2'F-ANA at 2 4 5 6 7 8 9 12 13 14` — result for “mean fluorescence intensity”: 46.9 a.u.
`2'F-ANA at 2 4 5 7 8 10 12` — result for “mean fluorescence intensity”: 50.8 a.u.

Excerpt of the above (block 4):
For `ATCACGAA`, the E-score was 0.137.
`CTGGTGAC` gave an E-score of -0.246.
With `AAGGCCCA` the E-score was -0.184.
`AGTATTGG` has an E-score of 0.185.
With `CGCGACGA` the E-score was -0.138.
For `AAATATCC`, the E-score was 0.274.
The E-score of `GGATCCCC` is reported as -0.305.
With `CAGTTACG` the E-score was -0.1.
With `GATAAGGA` the E-score was 0.0576.
With `ACTACGAA` the E-score was 0.125.
`AGGATGTC` has an E-score of -0.0821.
For `ACGGAGAA`, the E-score was -0.000755.
`GATGTCAC` has an E-score of -0.0663.
With `CCATATGG` the E-score was 0.0275.
`CCCCAAGG` gave an E-score of -0.284.
